Experimental data gathered from unrelated publications.
Each line is one published result; not all experiments were run side by side. ± gives the spread as reported.

`[BH3-][P+]1(c2ccccc2)CCC(=O)CC1` gave an IC50 of > 100 µM (SW480; cell growth or viability, MTT; 72 h).
`CCCCCC(=O)Oc1c(C)c(OC)c2c(c1C)OC(=O)[C@@H](CCCC)[C@]2(O)/C=C/c1ccccc1` (relative stereo) gave an IC50 of > 50 µM (KKU-M213; cell growth or viability, SRB; 72 h).
With `Nc1nc2cnc(C(=O)N3CCOC[C@@H]3c3ccc(C(F)(F)F)cc3)cc2c2c1COC2` the IC50 was 4.33 µM (HCT-116 MTAP wild type; cell viability, CellTiter-Glo; 6 days).
For `O=C(Nc1ccc(C(=O)Nc2ccc3[nH]ncc3c2)cc1F)Nc1cc(C(F)(F)F)ccc1F`, the IC50 was 47.6 ± 3.2 µM (KM12-Luc (TPM3-NTRK1); cell growth, CellTiter-Glo; 72 h).
`CCCCCC(=O)Oc1c(C)c(OC)c2c(/C=C/c3ccccc3)c(CCCC)c(=O)oc2c1C` gave an IC50 of > 50 µM (KKU-M213; cell growth or viability, SRB; 72 h).
`CC(C)Cc1ccc(C(C)C(=O)[O][Pt]([NH2])([NH2])([Cl])([Cl])[O]C(=O)CCCc2ccccc2)cc1` (stereo not drawn) has an IC50 of > 3.12 µM (LoVo oxaliplatin-resistant; cytotoxicity, MTT; 72 h).
The IC50 of `Cc1ccccc1/C=C/C(=O)N[C@@H](CO)C(=O)N[C@H](C(=O)N[C@H](Cc1ccccc1)C(=O)O)[C@@H](C)O` is reported as > 20 µM (SNU-638).
The IC50 of `C=CCOc1c(C)c(OC)c(C(=O)/C=C/c2ccccc2)c(OCC=C)c1C` is reported as > 50 µM (KKU-M213; cell growth or viability, SRB; 72 h).
With `Cc1ccccc1Nc1c(-c2ccco2)nc2c(Br)cccn12` the IC50 was 39.4 µM (786-O).
`CSCCCN1C(=O)C2=Nc3ccccc3CN2C1=S`: IC50 “inactive” (CEM/ADR5000 (P-gp overexpressing, multidrug-resistant); cell viability, resazurin; 72 h).
`Cn1ncc(-c2ccc3c(=O)[nH]nc(CN)c3c2)c1-c1c(F)c(Cl)cc(OC2CC2)c1C#N` has an IC50 of 0.05 µM (NCI-H2228; cell viability, inhibitor, CellTiter-Glo; 120 h, baseline-subtracted).
`C=CC(=O)N1CCC[C@@H](c2ccc(C(N)=O)c3[nH]ccc23)C1` has an IC50 of > 10 µM (TMD8 compound-resistant; cell viability, CellTiter-Glo; 4 days, 48 h drug withdrawal).
`Cn1ccnc1S/C(=C\C=C(C#N)C#N)c1ccc(Cl)cc1` has an IC50 of 2.44 µM (HEK293T; viability, CellTiter-Glo; 48 h).
For `COc1c(C)c(OCc2ccccc2)c(C)c(OCc2ccccc2)c1C(=O)/C=C/c1ccccc1`, the IC50 was > 50 µM (KKU-M213; cell growth or viability, SRB; 72 h).
`O=C(Nc1ccc(C(=O)Nc2ccc3[nH]ncc3c2)c(Cl)c1)Nc1cc(C(F)(F)F)ccc1F` gave an IC50 of 12.4 ± 2.37 µM (KM12-Luc (TPM3-NTRK1); cell growth, CellTiter-Glo; 72 h).
The IC50 of `NC(=O)c1ccc(-c2ccccc2Cl)c2c3c([nH]c12)CCC(N)C3` (stereo not drawn) is reported as 0.0316 µM (BXPC-3; cell growth or viability; 96 h).
`C=CC(=O)N1CCCC(n2c(=O)c3ncccc3n(Cc3ccc(Oc4ccccc4)cc3)c2=O)C1` (stereo not drawn) has an IC50 of 1.5 µM (SU-DHL-16; cell growth or viability, MTT; 72 h).
The IC50 of `CC(C)c1ccc(N(C)c2ccc3c(c2)OCC[C@H]3CNc2cnccc2C(=O)O)cc1` is reported as 0.0131 µM (NCI-H2347; cell growth or viability, ATP luminescence; 7 days).
`Cc1ccc([N+](=O)[O-])cc1S(=O)(=O)N(C)/N=C/c1cnc2ccc(Br)cn12` has an IC50 of 0.435 µM (SNB-75; MTS; NCI60 panel).
For `O=C(Nc1cc(C(F)(F)F)ccc1F)Nc1ccc(C(=O)Nc2ccc3[nH]ncc3c2)cc1C(F)(F)F`, the IC50 was 27.1 ± 0.43 µM (KM12-Luc (TPM3-NTRK1); cell growth, CellTiter-Glo; 72 h).
For `O=C(Nc1cc(-c2ccnc3[nH]ccc23)c(Cl)cn1)[C@H]1CCC[C@@H](NC(=O)C(F)(F)F)C1`, the IC50 was 0.0655 µM (Z-138, BTK inhibitor-resistant; cell viability; 72 h).
`CCOc1cncc(-c2ccc(NC(=O)C3(c4ccnc(NS(=O)(=O)C5CC5)n4)CCOCC3)nc2)n1` gave an IC50 of 2.52 µM (SK-LMS-1; cell proliferation, CellTiter-Glo; 72 h, Sarcoma cancer).
For `CNS(=O)(=O)Nc1nccc(Cc2c(C)c3ccc(Oc4ncccc4F)cc3oc2=O)c1F`, the IC50 was > 1 µM (WILL-2; cell viability, CellTiter-Glo; 7 days).
`Cn1ncc2cc(-c3cncc(Cl)c3N3CCC4(CCNC4=O)CC3)ccc21` gave an IC50 of 0.033 ± 0.012 µM (LS174T; WNT reporter gene, inhibitor, TCF/LEF luciferase).
With `O=C(Nc1ccc(C(=O)Nc2ccc3[nH]ncc3c2)c(Br)c1)Nc1cc(C(F)(F)F)ccc1F` the IC50 was 10.7 ± 0.91 µM (KM12-Luc (TPM3-NTRK1); cell growth, CellTiter-Glo; 72 h).
The IC50 of `CSc1sc2c3ccccc3c3ccccc3[n+]2c1C(=O)c1ccccc1` is reported as > 50 µM (NCI-H1299 (p53 null); cell viability, MTT; 72 h).
The IC50 of `O=C(NCc1cc(F)cc(F)c1)[C@@]1(O)CCN(c2ccc3[nH]ccc3c2)C1=O` is reported as > 10 µM (LXFL 529; colony formation).

Some of these lines once more:
For `O=C(Nc1ccc(C(=O)Nc2ccc3[nH]ncc3c2)cc1F)Nc1cc(C(F)(F)F)ccc1F`, the IC50 was 47.6 ± 3.2 µM (KM12-Luc (TPM3-NTRK1); cell growth, CellTiter-Glo; 72 h).
With `O=C(Nc1ccc(C(=O)Nc2ccc3[nH]ncc3c2)c(Br)c1)Nc1cc(C(F)(F)F)ccc1F` the IC50 was 10.7 ± 0.91 µM (KM12-Luc (TPM3-NTRK1); cell growth, CellTiter-Glo; 72 h).
